# Results gathered from unrelated publications.
# Each line is one published result; not all experiments were run side by side.
# Sequence of UniProt P36896 (whole entry, looked up): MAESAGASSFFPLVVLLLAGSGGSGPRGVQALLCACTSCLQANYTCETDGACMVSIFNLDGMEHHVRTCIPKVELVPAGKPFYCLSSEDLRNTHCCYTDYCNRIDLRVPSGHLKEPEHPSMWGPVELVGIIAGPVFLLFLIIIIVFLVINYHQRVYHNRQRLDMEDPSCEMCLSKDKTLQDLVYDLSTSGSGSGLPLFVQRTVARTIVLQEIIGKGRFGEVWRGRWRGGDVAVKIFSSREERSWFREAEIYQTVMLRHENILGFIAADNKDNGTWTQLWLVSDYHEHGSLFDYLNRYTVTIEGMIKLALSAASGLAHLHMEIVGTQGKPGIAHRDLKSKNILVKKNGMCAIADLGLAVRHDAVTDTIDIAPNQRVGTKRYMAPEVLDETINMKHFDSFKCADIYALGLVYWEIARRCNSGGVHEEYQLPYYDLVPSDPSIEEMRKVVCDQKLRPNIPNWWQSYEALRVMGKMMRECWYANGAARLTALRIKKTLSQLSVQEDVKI
# Sequence of UniProt Q14004 (whole entry, looked up): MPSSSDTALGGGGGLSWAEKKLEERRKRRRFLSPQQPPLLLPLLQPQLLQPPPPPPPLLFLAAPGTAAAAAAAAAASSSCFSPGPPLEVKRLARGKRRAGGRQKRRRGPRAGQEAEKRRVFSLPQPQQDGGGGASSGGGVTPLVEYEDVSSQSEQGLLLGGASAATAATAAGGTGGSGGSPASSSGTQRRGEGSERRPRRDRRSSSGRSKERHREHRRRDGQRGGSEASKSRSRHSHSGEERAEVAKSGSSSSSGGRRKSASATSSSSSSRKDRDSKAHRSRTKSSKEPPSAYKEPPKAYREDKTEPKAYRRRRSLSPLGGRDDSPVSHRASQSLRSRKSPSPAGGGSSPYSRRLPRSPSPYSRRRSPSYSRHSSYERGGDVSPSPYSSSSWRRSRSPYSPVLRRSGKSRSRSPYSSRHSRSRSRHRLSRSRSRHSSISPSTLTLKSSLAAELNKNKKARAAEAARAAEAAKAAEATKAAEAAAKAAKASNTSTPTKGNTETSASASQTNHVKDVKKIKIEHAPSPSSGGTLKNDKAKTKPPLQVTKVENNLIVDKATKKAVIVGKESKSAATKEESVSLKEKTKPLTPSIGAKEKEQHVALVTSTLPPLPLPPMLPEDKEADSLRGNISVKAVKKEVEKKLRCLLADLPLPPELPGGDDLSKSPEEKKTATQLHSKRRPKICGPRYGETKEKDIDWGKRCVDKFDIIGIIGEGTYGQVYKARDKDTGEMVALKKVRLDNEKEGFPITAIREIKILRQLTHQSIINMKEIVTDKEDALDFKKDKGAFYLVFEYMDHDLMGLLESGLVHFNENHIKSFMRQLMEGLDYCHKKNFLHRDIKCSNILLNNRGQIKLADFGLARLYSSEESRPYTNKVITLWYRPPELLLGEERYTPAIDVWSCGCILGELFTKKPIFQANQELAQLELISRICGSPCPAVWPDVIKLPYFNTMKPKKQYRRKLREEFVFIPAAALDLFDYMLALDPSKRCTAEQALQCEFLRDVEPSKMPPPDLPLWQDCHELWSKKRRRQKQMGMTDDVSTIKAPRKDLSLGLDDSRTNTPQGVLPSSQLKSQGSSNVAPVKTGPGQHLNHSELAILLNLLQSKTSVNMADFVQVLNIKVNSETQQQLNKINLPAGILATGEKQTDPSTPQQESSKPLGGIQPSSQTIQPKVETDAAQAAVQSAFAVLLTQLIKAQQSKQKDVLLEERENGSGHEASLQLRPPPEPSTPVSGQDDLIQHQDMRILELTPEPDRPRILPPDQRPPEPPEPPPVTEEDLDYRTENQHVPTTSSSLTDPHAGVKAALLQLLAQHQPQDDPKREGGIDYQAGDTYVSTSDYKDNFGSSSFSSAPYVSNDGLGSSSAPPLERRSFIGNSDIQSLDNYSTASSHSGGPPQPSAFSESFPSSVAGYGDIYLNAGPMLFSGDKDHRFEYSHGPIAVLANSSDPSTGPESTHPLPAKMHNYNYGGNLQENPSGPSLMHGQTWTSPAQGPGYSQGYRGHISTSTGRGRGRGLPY
# Sequence of UniProt Q04912 (whole entry, looked up): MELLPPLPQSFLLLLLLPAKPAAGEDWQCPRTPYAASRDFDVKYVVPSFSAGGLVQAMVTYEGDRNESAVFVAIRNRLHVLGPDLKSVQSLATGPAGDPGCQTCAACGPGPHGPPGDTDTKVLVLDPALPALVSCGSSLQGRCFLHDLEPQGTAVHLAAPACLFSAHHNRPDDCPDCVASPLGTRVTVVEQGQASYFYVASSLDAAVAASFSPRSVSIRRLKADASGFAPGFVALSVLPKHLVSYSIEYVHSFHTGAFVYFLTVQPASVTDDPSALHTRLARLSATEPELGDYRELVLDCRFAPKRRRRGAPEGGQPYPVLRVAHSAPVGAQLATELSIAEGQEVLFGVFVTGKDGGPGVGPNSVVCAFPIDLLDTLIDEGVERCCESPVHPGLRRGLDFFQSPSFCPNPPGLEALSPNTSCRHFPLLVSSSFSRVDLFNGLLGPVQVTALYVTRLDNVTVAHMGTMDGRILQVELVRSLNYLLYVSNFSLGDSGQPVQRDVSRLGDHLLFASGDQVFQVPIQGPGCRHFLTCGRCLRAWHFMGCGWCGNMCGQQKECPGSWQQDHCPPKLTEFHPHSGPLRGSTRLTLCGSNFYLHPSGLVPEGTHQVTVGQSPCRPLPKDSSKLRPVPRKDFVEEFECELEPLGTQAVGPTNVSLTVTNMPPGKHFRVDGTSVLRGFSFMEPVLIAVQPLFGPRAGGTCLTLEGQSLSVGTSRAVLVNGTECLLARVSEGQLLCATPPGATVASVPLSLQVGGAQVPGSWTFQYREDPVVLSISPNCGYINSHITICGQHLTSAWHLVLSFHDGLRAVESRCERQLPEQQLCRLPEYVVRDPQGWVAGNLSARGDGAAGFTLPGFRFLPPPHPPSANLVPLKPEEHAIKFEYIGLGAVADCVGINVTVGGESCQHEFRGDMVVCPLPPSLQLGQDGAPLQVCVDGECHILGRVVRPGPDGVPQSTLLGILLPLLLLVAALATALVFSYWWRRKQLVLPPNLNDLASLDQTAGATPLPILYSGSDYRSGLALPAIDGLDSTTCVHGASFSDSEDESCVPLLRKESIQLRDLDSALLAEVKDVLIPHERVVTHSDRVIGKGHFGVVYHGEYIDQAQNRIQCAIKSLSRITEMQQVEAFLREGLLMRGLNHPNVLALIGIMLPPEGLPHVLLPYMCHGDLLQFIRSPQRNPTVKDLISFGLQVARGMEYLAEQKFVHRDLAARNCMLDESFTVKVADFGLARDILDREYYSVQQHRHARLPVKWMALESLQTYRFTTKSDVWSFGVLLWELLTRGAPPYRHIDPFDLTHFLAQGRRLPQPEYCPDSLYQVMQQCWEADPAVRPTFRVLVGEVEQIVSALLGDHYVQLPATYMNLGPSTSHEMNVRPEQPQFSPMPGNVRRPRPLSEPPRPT
SMILES,target or system,test,test system,setting,measurement,value
CCCN(O)N=Nc1ccc(S(=O)(=O)Nc2onc(C)c2C)cc1,,ABTS scavenging,,120 µg/mL,inhibition,42.6%
COC(=O)Nc1nc2ccc(C(=O)c3ccccc3)cc2[nH]1,Cryptococcus neoformans,"microbial growth, broth dilution",,"72 h, clinical isolate",IC50,1.25 µM
CO[C@@]1(NC(=O)C2SC(=C(C(N)=O)C(=O)O)S2)C(=O)N2C(C(=O)O)=C(CSc3nnnn3C)CS[C@@H]21 (stereo partly drawn),Trypanosoma cruzi,"parasite growth, absorbance","Vero, TULAHUEN","96 h, intracellular, amastigote",IC50,> 200 µM
O=C(Nc1ccccc1)Nc1ccc(Oc2nnc(-c3ccc(Cl)cc3)c3ccccc23)cc1,MCF7,"cell growth or viability, MTT",,0.156 µM,cell death,57.1%
O=C(Cn1ccnc1[N+](=O)[O-])NCc1ccccc1,Trypanosoma cruzi,"parasite growth, absorbance","Vero, TULAHUEN","96 h, intracellular, amastigote",IC50,2.43 µM
O=C(Cn1ccnc1[N+](=O)[O-])NCc1ccccc1,Trypanosoma cruzi,parasite growth,"MRC-5 SV2, TULAHUEN","intracellular, amastigote",IC50,2.11 µM
CNc1ncc2c(/C=C/C(=O)N3CCC(OC)CC3)nn(Cc3cccc(C(F)(F)F)c3)c2n1,"Cyclin-dependent kinase 13, with cyclin K (CDK13, Homo sapiens, UniProt Q14004)","enzyme activity, inhibitor, radiometric",,1 µM,remaining activity,108%
COc1cc(-c2cncc3c2CN(C)Cc2cc(N4CCNCC4)ccc2-3)cc(OC)c1OC,"MST1R (Homo sapiens, UniProt Q04912)","enzyme activity, inhibitor",,1 µM,remaining activity,102%
C[C@@H](O[C@H]1OCCN(Cc2n[nH]c(=O)[nH]2)[C@H]1c1ccc(F)cc1)c1cc(C(F)(F)F)cc(C(F)(F)F)c1,Human immunodeficiency virus 1,"viral replication, inhibitor, ELISA","human PBMC, NL43",,IC50,8 µM
Cc1noc(NS(=O)(=O)c2ccc(N=NN(O)c3ccccc3)cc2)c1C,,ABTS scavenging,,240 µg/mL,inhibition,89.9%
CC1=C(Cn2cc(CN)nn2)C(=O)c2ccccc2C1=O,Schistosoma mansoni,parasite growth,,"72 h, larva",IC50,0.81 µM
CC[C@]1(O)C[C@@H]2CN(CCc3c([nH]c4ccccc34)[C@@](C(=O)OC)(c3cc4c(cc3OC)N(C)[C@H]3[C@@](O)(C(=O)OC)[C@H](OC(C)=O)[C@]5(CC)C=CCN6CC[C@]43[C@@H]65)C2)C1,Trypanosoma cruzi,"parasite growth, absorbance","Vero, TULAHUEN","96 h, intracellular, amastigote",IC50,0.16 µM
COc1cc(-c2oc3cc(O)cc(O)c3c(=O)c2O)ccc1O,Human immunodeficiency virus 1,viral replication,"TZM-bl, BAL",48 h,IC50,2.22 µM
CC1=C(Cn2cc(CN3CCOCC3)nn2)C(=O)c2ccccc2C1=O,Schistosoma mansoni,parasite growth,,"72 h, larva",IC50,0.98 µM
Cc1cc(CCCOc2c(C)cc(-c3noc(C(F)(F)F)n3)cc2C)on1,Enterovirus,cytopathic effect,HeLa,,IC50,3.3 µM
O=C(O)/C=C/c1ccc(O)c(O)c1,Human immunodeficiency virus 1,viral replication,"TZM-bl, BAL",48 h,IC50,> 100 µM
O=C(Nc1cccc2c(=O)cc(-c3nnn[nH]3)oc12)c1ccc(OCCCCc2ccccc2)cc1,Trypanosoma cruzi,"parasite growth, absorbance","Vero, TULAHUEN","96 h, intracellular, amastigote",IC50,84.8 µM
C=CC(=O)N1CCC(COCC(=O)N2CCN(c3nc(-c4cnc(N)nc4C(F)F)nc(N4CCOC[C@@H]4C)n3)CC2)CC1,"ACVR1B (Homo sapiens, UniProt P36896)","binding, competition with immobilised ligand",,1 µM,remaining binding,100%
